Assay results of several laboratories.
Every numbered part comes from another study and shows a few of its results, in no order. Substitutions count along the parent as printed.

Set 1
Target: Histone acetyltransferase KAT6A, winged helix 2, GST fusion (KAT6A, Homo sapiens, UniProt Q92794, residues 85-181)
Technique: protein binding microarray
Molecule type: double-stranded DNA, one strand shown
Sample: in vitro
Concentration: not given
Setting: 8-mer, flanks averaged, mean of 2 arrays, mostly near background
Baseline: not given
Direction: higher = stronger binding
Measurement: E-score
Residues (chain): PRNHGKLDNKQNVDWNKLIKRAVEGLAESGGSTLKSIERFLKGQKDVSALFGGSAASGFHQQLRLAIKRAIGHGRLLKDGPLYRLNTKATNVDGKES
CTAATCCA: 0.00583
AGGCCCGC: 0.0871
ACGCGACG: 0.0231
AAAATGAC: -0.0936
GTCACGCA: -0.0874
CCACAGAC: -0.0474
GCTCCAAA: 0.0456
AAGGTATG: -0.109

Set 2
Target: Prothrombin, mature alpha-thrombin (F2, Homo sapiens, UniProt P00734)
Technique: aptamer microarray, sandwich
Molecule type: DNA with 2'F-ANA
Sample: in vitro
Concentration: 200 nM
Setting: whole 15-mer aptamer, many near background
Added: Cy3 exosite-II aptamer, 400 nM
Direction: higher = stronger binding
Measurement: mean fluorescence intensity
Oligonucleotide: GGTTGGTGTGGTTGG
2'F-ANA at 1 6 7 11 13 14 15: 56.9 a.u.
2'F-ANA at 1 2 3 5 6 10 11 12 13 14 15: 199 a.u.
2'F-ANA at 1 2 3 5 9 10 11: 45.7 a.u.
2'F-ANA at 1 5 8 11 12 13 14 15: 62.4 a.u.
2'F-ANA at 2 4 8 9 10 15: 99 a.u.
2'F-ANA at 2 4 7 12 13 15: 481 a.u.
2'F-ANA at 2 7 8 9 12 13 14: 180 a.u.
2'F-ANA at 1 2 5 8 9 10 11 12: 49.1 a.u.

Set 3
Target: ABI1, truncated, D143A, DHFR fusion (Arabidopsis thaliana)
Technique: DHFR PCA, deep sequencing
Sample: yeast
Setting: methotrexate growth selection, single substitutions
Added: (+)-ABA 200 µM
Baseline: wild-type fitted maximum
Direction: higher = stronger binding
Measurement: relative binding score
Starting sequence: PYL1, truncated, DHFR fusion (Arabidopsis thaliana); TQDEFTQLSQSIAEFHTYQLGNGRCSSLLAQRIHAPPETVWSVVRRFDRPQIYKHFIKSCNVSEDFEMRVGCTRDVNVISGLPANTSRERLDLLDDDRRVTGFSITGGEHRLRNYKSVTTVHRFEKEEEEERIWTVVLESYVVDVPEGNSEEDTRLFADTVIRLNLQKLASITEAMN; partner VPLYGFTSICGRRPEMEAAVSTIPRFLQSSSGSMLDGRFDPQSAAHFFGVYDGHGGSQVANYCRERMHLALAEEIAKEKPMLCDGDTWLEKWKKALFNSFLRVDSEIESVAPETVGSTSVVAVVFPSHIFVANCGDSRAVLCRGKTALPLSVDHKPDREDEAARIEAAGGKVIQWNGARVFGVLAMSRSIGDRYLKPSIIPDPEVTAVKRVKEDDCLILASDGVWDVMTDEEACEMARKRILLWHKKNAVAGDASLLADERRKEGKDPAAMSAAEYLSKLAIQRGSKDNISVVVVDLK
L164C: 106%
K126C: 103%
T106I: 112%
D48V: 17.8%
T101F: 109%
S59L: 72.5%
F5D: 83.7%
Y53T: 42.8%

Further values, each from its own experiment
Cc1nc2c([nH]1)-c1ccccc1N(C(=O)c1ccc(NC(=O)c3ccccc3-c3ccccc3)cc1)CC2  viability (A-375; 100 µM, 36 h): 95%

Some of these lines once more (set 1):
AAAATGAC: -0.0936
GTCACGCA: -0.0874
CCACAGAC: -0.0474
GCTCCAAA: 0.0456
